# Published values gathered from unrelated publications.
# Protocols differ between the studies behind these lines. ± marks the error that the study gave.
# Cell line: A2780
SMILES,test,conditions,how to read,measurement,result
C[C@@H]1CC[C@@H]([C@](O)(CNCc2ccccc2)COCc2ccccc2)[C@H](OCc2ccccc2)C1,"cell growth, inhibitor, MTT",72 h,,IC50,4060 nM
[Fe+2].c1cc[cH-]c1.c1cc[cH-]c1,"viability, MTT",96 h,,IC50,> 100000 nM
COc1cnc2cccc(N3CCc4c(cc(Cn5ccnc5C)cc4-c4cn(C)nc4C(F)(F)F)C3=O)c2c1,"cell growth, inhibitor",120 h,,EC50,340 nM
COc1ccc(CNC[C@](O)(COCc2ccc(OC)cc2)[C@@H]2CC[C@@H](C)C[C@H]2OCc2ccc(OC)cc2)cc1,"cell growth, inhibitor, MTT",72 h,,IC50,1330 nM
COc1cccc2c1C(=O)c1c(O)c3c(c(O)c1C2=O)C[C@@](O)(C(=O)CO)C[C@@H]3O[C@H]1C[C@H](N)[C@H](O)[C@H](C)O1,WST-1,"concentration not given, 72 h, highest tested concentration",,maximal cytotoxicity,93.3%
CCNNC(=O)c1ccc(CN(CC(=O)NCc2ccccc2)C(=O)c2ccc(N(C)C)cc2)cc1,"flow cytometry, measured: subG1 nuclei",concentration not given,,apoptotic cells,~60%
CCn1cc(-c2cc(Cn3ccoc3=N)cc3c2CCN([C@@H](C)c2cc(OC)ccn2)C3=O)c(C(F)(F)F)n1,"cell growth, inhibitor",120 h,,EC50,195 nM
COc1ccc(CNC[C@](O)(COCc2ccc(F)cc2)[C@@H]2CC[C@@H](C)C[C@H]2OCc2ccc(F)cc2)cc1,"cell growth, inhibitor, MTT",72 h,,IC50,1520 nM
Nc1ccn([C@@H]2O[C@H](CO)[C@@H](O)C2(F)F)c(=O)n1,"cell proliferation, CCK-8",4 d,baseline: untreated,ED50,0.5 ± 0.02 nM
O=C(/C=C/C=C/C=C/C1CCCCC1)NC1=C[C@@](O)(/C=C/C=C/C=C/C(=O)NC2=C(O)CCC2=O)[C@@H]2O[C@@H]2C1=O,"cell growth, CellTiter-Glo",78 h,,GI50,8060 nM
COc1cccc(CNC[C@@](C)(O)[C@@H]2CC[C@@H](C)C[C@H]2OCc2ccccc2)c1,"cell growth, inhibitor, MTT",72 h,,IC50,12500 nM
Cc1[nH]c2ccccc2c1CCNCc1ccc(/C=C/C(=O)NO)cc1,annexin V/PI flow cytometry,"concentration not given, 48 h",baseline: control subtracted,early apoptotic cells,8.4 ± 1.6%

# A few entries again:
SMILES,test,conditions,how to read,measurement,result
COc1cccc(CNC[C@@](C)(O)[C@@H]2CC[C@@H](C)C[C@H]2OCc2ccccc2)c1,"cell growth, inhibitor, MTT",72 h,,IC50,12500 nM
CCn1cc(-c2cc(Cn3ccoc3=N)cc3c2CCN([C@@H](C)c2cc(OC)ccn2)C3=O)c(C(F)(F)F)n1,"cell growth, inhibitor",120 h,,EC50,195 nM
